Results collected from several papers.
Every numbered part comes from another study and shows a few of its results, in no order. Values joined by “and” are separate records of one study, mostly repeats; a detail may differ.

Study 1
SMILES: COCC1CC2C(CCC3C(O)CCC32)c2ccc(O)cc21 (centres unmarked)
cell line | assay | conditions | how to read | mRNA level ratio
A549 | microarray, measured: SPC25 | 100 µM | relative to: untreated | 0.663
PANC-1 | microarray, measured: OLIG2 | 100 µM | relative to: untreated | 1
PANC-1 | DNA microarray, measured: TMEM108 | 100 µM | relative to: untreated cells | 1.67
PANC-1 | microarray, measured: CCL11 | 25 µM | relative to: untreated | 103
PANC-1 | DNA microarray, measured: C6 | 25 µM | relative to: untreated cells | 205
PANC-1 | DNA microarray, measured: KIF20A | 100 µM | relative to: untreated cells | 1.43 and 1.45 and 1.44
PANC-1 | DNA microarray, measured: ACTB | 25 µM | relative to: untreated cells | 0.817 and 0.871 and 0.826 and 0.855 and 0.872
SK-OV-3 | microarray, measured: RFC3 | 100 µM | relative to: untreated | 0.95

Study 2
SMILES: COc1cc(C(=O)OCCCN2CCCN(CCCOC(=O)c3cc(OC)c(OC)c(OCc4ccc([N+](=O)[O-])cc4)c3)CC2)cc(OC)c1OC
Technique: electrocardiography
test system | conditions | heart rate
mice | intravenous, 30 mg/kg, 60 min | 426 beats/min and 486 beats/min and 489 beats/min and 540 beats/min and 550 beats/min and 543 beats/min
mouse | intraperitoneal, 10 mg/kg, before dosing | 578 beats/min and 658 beats/min and 598 beats/min
mice | intraperitoneal, 30 mg/kg, 60 min | 550 beats/min and 600 beats/min and 620 beats/min
mice | intravenous, 30 mg/kg, 10 min | 370 beats/min and 459 beats/min and 590 beats/min and 397 beats/min and 587 beats/min and 441 beats/min
mouse | intraperitoneal, 30 mg/kg, 30 min | 635 beats/min and 610 beats/min and 557 beats/min
mice | intraperitoneal, 10 mg/kg, 30 min | 628 beats/min and 561 beats/min and 580 beats/min

Study 3
Compound: Cc1ncsc1-c1ccc(C(CO)NC(=O)C2CC(O)CN2C(=O)C(C(C)C)n2cc(-c3ccc(COc4c(-c5c(C)c(F)cc6[nH]ncc56)c(C5CC5)cc5c(N6CC7CC6CN7)nc(OC6CCOCC6)nc45)cc3)nn2)cc1 (centres unmarked)
test system | conditions | body weight
mouse, PK-59 xenograft | 3 mg/kg, day 10 | 25.1 g and 24.4 g and 25.4 g and 24.5 g
mouse, lung LXFA sample A PDX | 10 mg/kg twice weekly, day 13 | 29.9 g and 26.5 g and 28.6 g
mouse, PK-59 xenograft | subcutaneous, 30 mg/kg once daily, day 6 | 18.3 g and 18.9 g and 19.1 g and 20.5 g
mouse, HT-29 xenograft | sc, 30 mg/kg once daily, day 3 | 18.4 g and 19.1 g and 18.6 g and 20.6 g and 21.2 g
mouse, lung LXFA sample A PDX | 30 mg/kg twice weekly, day 19 | 29.8 g and 28.6 g
mouse, HPAC xenograft | 30 mg/kg once weekly, day 14 | 23.5 g
mouse, PK-59 xenograft | 10 mg/kg, day 10 | 28.3 g and 25.4 g and 24.2 g
mouse, PK-59 xenograft | 10 mg/kg, day 0 | 25.6 g and 24.2 g and 24.3 g and 23 g and 22.4 g

Further values, each from its own experiment
Compound | test system | conditions | measurement | result
Cn1cc(-c2cccc(CN3CCC4(CC3)COc3c4ccc4c3CN([C@H]3CCC(=O)NC3=O)C4=O)c2)cn1 | Crbn I391V mouse, MC-38 tumour | oral, daily, 30 mg/kg, day 12, anti-PD1 combination study | body weight change | -0.3% and -1.3% and 2% and 3.2% and 3%

A few entries again (study 1):
cell line | assay | conditions | how to read | mRNA level ratio
SK-OV-3 | microarray, measured: RFC3 | 100 µM | relative to: untreated | 0.95
